Published values from different studies.
Protocols differ between the studies behind these lines.

COc1c(CNC(=O)c2cc(C3CC3)nn2C)cccc1OC(F)(F)F  EC50 (human respiratory syncytial virus; viral replication; HEp-2, A-2): < 25 nM
COc1cc(O)c2c(=O)c(O)c(-c3ccc(OC)c(O)c3)oc2c1  MIC (Gram-positive and Gram-negative bacteria): > 100 µg/mL
CN1CC(=O)N=C1N.C[C@H](CCC(=O)O)[C@H]1CC[C@H]2[C@@H]3[C@H](O)C[C@@H]4C[C@H](O)CC[C@]4(C)[C@H]3CC[C@]12C  inhibition zone (Salmonella enterica Typhimurium; TISTR 1470; 1 mg per disc, 18 to 24 h, 37 °C, 6 mm disc): inactive
CN[C@@H]1[C@H](O)[C@H](NC)[C@H]2O[C@]3(O)[C@H](O[C@@H]2[C@H]1O)O[C@H](C)C[C@H]3NC(=O)Cc1ccc(O)cn1  MIC (Mycobacteroides abscessus; microbial growth; ATCC19977; 5 days): 64 µg/mL
COC(=O)C1NC(=O)C2NC(=O)C(NC(=O)C3NC(=O)C4NC(=O)C(NC(=O)C(Nc5c(OC)c(=O)c5=O)c5ccc(O)c(c5)Oc5cc4cc(O)c5C)C(O)c4ccc(cc4)Oc4cc3cc(c4O)Oc3ccc(cc3)C2O)c2ccc(O)c(c2)-c2c(O)cc(O)cc21 (centres unmarked)  EC50 (influenza virus; viral replication): 2400 nM
O=C1/C(=N\NC(=S)NN=Cc2cccs2)c2ccccc2N1Cc1ccccc1  EC50 (influenza B virus; viral cytopathogenicity, MTS; MDCK): > 4000 nM
Cc1ccc2nc(C(F)(F)F)c(C(=O)NCc3cccc(Cl)c3)n2c1  MIC (Streptococcus pyogenes; microbial growth, broth dilution; 1308007P): 16 µM
CC(=O)[O-].O.O.[O-]c1ccc(Br)cc1C=NCCN1CCOCC1.[Zn+2]  inhibition zone diameter (Salmonella enterica; serovar Typhi; 20 µL of 100 µM per disc): 24 mm
Cc1ccc2nc(C)c(C(=O)NCc3cccs3)n2c1  MIC (Streptococcus pyogenes; microbial growth, broth dilution; 1308007P): > 64 µM
CCn1c2ccccc2c2cc(/C=N/NC(=O)Cn3ccc(=O)c4ccccc43)ccc21  inhibition (Fusarium graminearum; microbial growth; 50 µg/mL): 26.2%
Cc1cn(C2CC(N(C)C)C(CO)O2)c(=O)[nH]c1=O (centres unmarked)  EC50 (influenza B virus; viral cytopathic effect; MDCK): > 370 nM
CC[C@H](C)[C@H](NC(=O)[C@H](CC(C)C)NC(=O)CNC(=O)[C@H](CCCCN)NC(=O)[C@@H](NC(=O)[C@@H](NC(=O)[C@H](CC(N)=O)NC(=O)[C@H](Cc1c[nH]c2ccccc12)NC(=O)[C@@H](NC(=O)[C@H](CCC(=O)O)NC(=O)CNC(=O)[C@H](Cc1c[nH]c2ccccc12)NC(=O)[C@@H](N)CC(C)C)[C@@H](C)CC)[C@@H](C)O)C(C)C)C(N)=O  IC50 (Herpes simplex virus 1; viral entry, plaque reduction; Vero, F; 37 °C): 31.7 µg/mL
CON(C(=O)c1cn(C)nc1C(F)F)C(C)Cc1c(Cl)cc(Cl)cc1Cl (centres unmarked)  inhibition (Fusarium graminearum; microbial growth; 1.56 µg/mL): 98.3%
Cc1cc(Oc2nc(N3CC[C@@H](c4ccncc4)C3)ncc2F)[nH]n1  IC50 (Mycobacterium tuberculosis; THP-1, H37Rv non-replicating; day 4 + 1): 660 nM
CN1CC(=O)N=C1N.C[C@H](CCC(=O)O)[C@H]1CC[C@H]2[C@@H]3CC[C@@H]4C[C@H](O)CC[C@]4(C)[C@H]3C[C@H](O)[C@]12C  inhibition zone (Salmonella enterica Typhimurium; TISTR 1470; 1 mg per disc, 18 to 24 h, 37 °C, 6 mm disc): inactive
COc1ccc(CCNc2cc(-c3ccccc3)nc3ncnn23)cc1  MIC (Streptococcus pyogenes; microbial growth, broth dilution; 1308007P): 16 µM
CC(C)C1=C[C@@]23CC[C@@H]4[C@](C)(CCC[C@@]4(C)C(=O)NCC#CCN4CCCNCC4)[C@H]2C[C@@H]1C1=C3C(=O)C=CC1=O  relative antiviral activity (influenza A virus A/Puerto Rico/8/34 (H1N1); MDCK; concentration not given; baseline: compound over oseltamivir): 34

A few entries again:
Cc1cc(Oc2nc(N3CC[C@@H](c4ccncc4)C3)ncc2F)[nH]n1  IC50 (Mycobacterium tuberculosis; THP-1, H37Rv non-replicating; day 4 + 1): 660 nM
CN1CC(=O)N=C1N.C[C@H](CCC(=O)O)[C@H]1CC[C@H]2[C@@H]3CC[C@@H]4C[C@H](O)CC[C@]4(C)[C@H]3C[C@H](O)[C@]12C  inhibition zone (Salmonella enterica Typhimurium; TISTR 1470; 1 mg per disc, 18 to 24 h, 37 °C, 6 mm disc): inactive
COc1ccc(CCNc2cc(-c3ccccc3)nc3ncnn23)cc1  MIC (Streptococcus pyogenes; microbial growth, broth dilution; 1308007P): 16 µM
